Results from different studies.
Protocols differ between the studies behind these lines. “And” joins repeats or separate records; there may be more than shown. Numbers after ± are the reported error.
Ubiquitin carboxyl-terminal hydrolase 39 ZnF-UBD domain: Ubiquitin carboxyl-terminal hydrolase 39, ZnF-UBD domain (Homo sapiens, UniProt Q53GS9)
Chain of UniProt Q53GS9 (whole entry, looked up): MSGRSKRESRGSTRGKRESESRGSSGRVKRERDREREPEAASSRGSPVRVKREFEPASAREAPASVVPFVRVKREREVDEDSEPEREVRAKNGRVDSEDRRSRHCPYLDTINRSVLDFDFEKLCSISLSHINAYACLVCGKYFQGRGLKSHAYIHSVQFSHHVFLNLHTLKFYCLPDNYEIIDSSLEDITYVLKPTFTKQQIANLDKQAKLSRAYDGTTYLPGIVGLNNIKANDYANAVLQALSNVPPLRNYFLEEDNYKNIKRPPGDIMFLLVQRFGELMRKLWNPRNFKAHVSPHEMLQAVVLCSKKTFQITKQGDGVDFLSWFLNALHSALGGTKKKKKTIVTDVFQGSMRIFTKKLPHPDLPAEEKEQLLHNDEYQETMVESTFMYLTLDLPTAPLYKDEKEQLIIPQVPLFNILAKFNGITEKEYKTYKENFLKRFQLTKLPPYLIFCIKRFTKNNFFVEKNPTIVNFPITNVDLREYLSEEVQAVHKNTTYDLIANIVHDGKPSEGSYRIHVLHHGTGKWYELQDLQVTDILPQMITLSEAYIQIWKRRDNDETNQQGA
STK38: Serine/threonine-protein kinase 38 (STK38, Homo sapiens, UniProt Q15208)
Chain of UniProt Q16774 (whole entry, unmodified, looked up): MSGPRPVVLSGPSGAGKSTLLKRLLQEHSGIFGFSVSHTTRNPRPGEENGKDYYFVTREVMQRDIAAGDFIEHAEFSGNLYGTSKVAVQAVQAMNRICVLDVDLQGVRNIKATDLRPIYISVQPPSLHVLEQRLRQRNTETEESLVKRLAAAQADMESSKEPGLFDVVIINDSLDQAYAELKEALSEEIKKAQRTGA
Chain of UniProt P51575 (whole entry, unmodified, looked up): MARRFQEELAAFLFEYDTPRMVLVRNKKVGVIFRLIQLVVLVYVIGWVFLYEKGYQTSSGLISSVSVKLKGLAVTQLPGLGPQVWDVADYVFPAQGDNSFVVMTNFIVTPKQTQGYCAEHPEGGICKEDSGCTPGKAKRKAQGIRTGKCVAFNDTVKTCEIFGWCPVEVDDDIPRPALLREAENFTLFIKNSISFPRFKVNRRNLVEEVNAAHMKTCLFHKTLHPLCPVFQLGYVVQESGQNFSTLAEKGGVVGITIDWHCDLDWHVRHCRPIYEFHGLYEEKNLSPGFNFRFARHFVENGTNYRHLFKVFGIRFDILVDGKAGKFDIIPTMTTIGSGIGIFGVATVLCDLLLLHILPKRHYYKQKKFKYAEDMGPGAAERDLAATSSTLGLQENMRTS
Chain of UniProt P20393 (whole entry, looked up): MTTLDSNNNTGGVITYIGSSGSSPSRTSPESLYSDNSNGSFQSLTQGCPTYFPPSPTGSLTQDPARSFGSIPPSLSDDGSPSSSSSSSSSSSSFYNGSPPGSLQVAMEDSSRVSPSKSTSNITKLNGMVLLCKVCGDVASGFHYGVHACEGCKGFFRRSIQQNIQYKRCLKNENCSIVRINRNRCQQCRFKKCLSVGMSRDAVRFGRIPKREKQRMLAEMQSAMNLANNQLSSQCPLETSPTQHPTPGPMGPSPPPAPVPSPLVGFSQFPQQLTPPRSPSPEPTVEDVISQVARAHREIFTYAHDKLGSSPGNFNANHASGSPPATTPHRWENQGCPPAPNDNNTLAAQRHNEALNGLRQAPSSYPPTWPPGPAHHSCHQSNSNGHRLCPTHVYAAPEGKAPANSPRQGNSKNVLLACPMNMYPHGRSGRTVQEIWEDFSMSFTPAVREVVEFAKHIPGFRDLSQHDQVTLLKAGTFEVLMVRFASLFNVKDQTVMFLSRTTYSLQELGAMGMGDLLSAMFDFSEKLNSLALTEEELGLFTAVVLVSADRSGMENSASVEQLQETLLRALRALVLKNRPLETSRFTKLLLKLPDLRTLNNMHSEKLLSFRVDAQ
Chain of UniProt Q15208 (whole entry, looked up): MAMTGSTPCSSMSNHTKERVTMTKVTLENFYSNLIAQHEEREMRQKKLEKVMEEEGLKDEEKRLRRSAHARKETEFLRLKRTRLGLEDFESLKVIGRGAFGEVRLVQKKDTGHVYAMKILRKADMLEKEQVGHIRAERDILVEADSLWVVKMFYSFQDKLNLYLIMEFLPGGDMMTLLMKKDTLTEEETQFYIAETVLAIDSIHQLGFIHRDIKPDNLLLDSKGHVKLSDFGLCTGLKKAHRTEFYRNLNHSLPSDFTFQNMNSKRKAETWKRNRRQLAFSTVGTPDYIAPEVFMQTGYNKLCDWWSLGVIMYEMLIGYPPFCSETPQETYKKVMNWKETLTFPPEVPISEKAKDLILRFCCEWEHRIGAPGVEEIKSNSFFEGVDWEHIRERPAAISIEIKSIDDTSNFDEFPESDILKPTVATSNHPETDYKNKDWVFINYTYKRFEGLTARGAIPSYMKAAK
Chain of UniProt Q9BY41 (whole entry, looked up): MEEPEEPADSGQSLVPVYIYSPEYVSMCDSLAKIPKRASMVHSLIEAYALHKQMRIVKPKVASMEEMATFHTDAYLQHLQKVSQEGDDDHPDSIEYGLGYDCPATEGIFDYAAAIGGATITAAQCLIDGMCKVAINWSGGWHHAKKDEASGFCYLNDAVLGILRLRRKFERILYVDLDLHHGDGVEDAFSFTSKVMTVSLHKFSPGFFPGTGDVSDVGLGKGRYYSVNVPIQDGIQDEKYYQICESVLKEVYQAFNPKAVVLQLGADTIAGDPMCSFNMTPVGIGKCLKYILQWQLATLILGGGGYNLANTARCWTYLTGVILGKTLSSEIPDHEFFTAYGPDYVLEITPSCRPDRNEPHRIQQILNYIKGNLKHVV
Chain of UniProt Q96D96 (whole entry, unmodified, looked up): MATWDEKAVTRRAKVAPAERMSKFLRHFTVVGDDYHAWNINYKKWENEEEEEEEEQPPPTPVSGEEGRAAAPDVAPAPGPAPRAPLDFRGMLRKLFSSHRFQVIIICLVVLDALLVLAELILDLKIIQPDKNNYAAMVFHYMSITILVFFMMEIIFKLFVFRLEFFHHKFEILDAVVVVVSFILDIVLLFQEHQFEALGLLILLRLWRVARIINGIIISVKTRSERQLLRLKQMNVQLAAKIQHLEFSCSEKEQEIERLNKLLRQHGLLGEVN
Chain of UniProt P53341 (whole entry, looked up): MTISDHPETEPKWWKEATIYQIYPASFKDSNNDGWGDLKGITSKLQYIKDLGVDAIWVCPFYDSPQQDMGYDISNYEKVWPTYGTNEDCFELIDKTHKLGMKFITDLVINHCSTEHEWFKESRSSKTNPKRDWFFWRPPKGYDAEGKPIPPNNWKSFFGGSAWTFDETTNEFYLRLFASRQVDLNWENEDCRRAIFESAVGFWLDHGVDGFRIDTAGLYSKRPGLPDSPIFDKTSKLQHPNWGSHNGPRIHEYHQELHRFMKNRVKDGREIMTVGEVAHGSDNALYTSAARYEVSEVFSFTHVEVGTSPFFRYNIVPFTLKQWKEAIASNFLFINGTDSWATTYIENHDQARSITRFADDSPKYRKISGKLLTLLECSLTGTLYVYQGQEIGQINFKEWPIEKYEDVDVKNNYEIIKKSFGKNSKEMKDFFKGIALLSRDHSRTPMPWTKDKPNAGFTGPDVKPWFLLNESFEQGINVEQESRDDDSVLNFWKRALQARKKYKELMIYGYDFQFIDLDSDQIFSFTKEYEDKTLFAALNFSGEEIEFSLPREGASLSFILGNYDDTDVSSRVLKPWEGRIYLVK
Chain of UniProt O43570 (whole entry, looked up): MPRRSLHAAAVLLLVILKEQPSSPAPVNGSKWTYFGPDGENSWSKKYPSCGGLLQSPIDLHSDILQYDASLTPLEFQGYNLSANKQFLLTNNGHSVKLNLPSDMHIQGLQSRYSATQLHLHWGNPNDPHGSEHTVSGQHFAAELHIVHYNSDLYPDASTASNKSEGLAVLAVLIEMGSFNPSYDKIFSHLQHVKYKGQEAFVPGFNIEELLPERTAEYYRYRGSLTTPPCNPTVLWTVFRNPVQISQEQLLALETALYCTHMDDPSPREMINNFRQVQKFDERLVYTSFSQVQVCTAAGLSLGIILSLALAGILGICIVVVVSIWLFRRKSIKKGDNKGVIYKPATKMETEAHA
Chain of UniProt O75914 (whole entry, looked up): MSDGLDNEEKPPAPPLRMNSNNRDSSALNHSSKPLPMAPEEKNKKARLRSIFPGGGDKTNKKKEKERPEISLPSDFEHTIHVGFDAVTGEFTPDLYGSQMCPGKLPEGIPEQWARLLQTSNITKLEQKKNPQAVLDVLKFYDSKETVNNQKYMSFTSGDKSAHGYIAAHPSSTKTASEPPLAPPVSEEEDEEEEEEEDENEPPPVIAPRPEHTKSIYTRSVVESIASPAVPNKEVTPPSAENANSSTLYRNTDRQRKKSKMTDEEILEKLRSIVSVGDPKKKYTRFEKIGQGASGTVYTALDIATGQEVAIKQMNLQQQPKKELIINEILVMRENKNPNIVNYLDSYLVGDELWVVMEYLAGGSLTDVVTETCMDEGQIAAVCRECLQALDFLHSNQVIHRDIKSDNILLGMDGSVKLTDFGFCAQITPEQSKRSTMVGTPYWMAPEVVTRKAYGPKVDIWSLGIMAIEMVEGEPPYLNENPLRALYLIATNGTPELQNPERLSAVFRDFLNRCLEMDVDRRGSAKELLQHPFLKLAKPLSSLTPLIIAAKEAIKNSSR
Chain of UniProt P34972 (whole entry, looked up): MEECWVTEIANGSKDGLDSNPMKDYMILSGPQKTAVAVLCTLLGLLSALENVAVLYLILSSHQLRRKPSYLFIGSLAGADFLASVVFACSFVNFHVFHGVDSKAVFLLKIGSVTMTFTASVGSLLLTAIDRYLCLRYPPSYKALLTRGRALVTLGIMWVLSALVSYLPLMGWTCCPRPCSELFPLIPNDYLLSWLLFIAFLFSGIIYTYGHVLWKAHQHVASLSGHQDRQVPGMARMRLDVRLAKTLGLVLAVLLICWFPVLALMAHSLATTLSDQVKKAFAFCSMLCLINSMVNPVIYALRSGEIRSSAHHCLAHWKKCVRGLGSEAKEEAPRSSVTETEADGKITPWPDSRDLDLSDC

SMILES = CCCCc1nc2c(N)nc3ccccc3c2n1Cc1ccc(N)cc1; tested on = TLR7 (Homo sapiens, UniProt Q9NYK1); test = NF-κB reporter gene, agonist; test system = HEK-Blue HEK293 overexpressing TLR7; quantity = lowest activating concentration; value = 16 nM
SMILES = COc1ccc(C=C2SC(=O)N(C(C)C(=O)O)C2=O)cc1 (stereo not shown); tested on = Ubiquitin carboxyl-terminal hydrolase 39 ZnF-UBD domain; quantity = Kd; value = > 1 mM
SMILES = CC[C@@H]1[C@H](F)C(=O)N[C@@H]1COc1nccc2cc(C(N)=O)c(OC)cc12; tested on = STK38; test = ATP-site probe binding, ActivX profiling; test system = THP-1 cell lysate; setting = 0.04 mM, Lys1 site; quantity = inhibition; value = -3.9%
SMILES = OC[C@H]1O[C@H](OC[C@H]2O[C@H](O[C@]3(CO)O[C@H](CO)[C@@H](O)[C@@H]3O)[C@H](O)[C@@H](O)[C@@H]2O)[C@H](O)[C@@H](O)[C@H]1O; test = binding, equilibrium dialysis LC-MS; setting = 5 µM, thermostabilized A2AR-BRIL construct; scale = reference: no-protein control, direction not given; quantity = z-scored log2 fold change; value = 0.163
SMILES = COc1cc(O)c2c(c1)oc(=O)c1c3cc(O)c(O)cc3oc21; tested on = MAL12 (Saccharomyces cerevisiae S288c, UniProt P53341); test = circular dichroism; setting = molar ratio 1:2; quantity = α-Helix content; value = 20.1%
SMILES = C=CC(=O)N1CCC(COCC(=O)N2CCN(c3nc(-c4cnc(N)nc4C(F)F)nc(N4CCOC[C@@H]4C)n3)CC2)CC1; tested on = NLK (Homo sapiens, UniProt Q9UBE8); test = KINOMEscan; setting = 1 µM; quantity = remaining binding; value = 100%
SMILES = N=C(N)Nc1nc2ccccc2[nH]1; tested on = HVCN1 (Homo sapiens, UniProt Q96D96, F149A); test = proton current, inhibitor, inside-out patch clamp; quantity = Hill coefficient; value = 0.89 ± 0.05
SMILES = CCCCCCCC(=O)c1cc(OC)c(OC)c(OC)c1CC(=O)OCC; tested on = NR1D1 (Homo sapiens, UniProt P20393); test = reporter gene, Gal4 hybrid reporter; setting = 10 µM; scale = reference: vehicle; quantity = activation; value = 0.94 fold
SMILES = Nc1ncnc2c1ncn2[C@@H]1O[C@H](COP(=O)(O)CP(=O)(O)OP(=O)(O)O)[C@@H](O)[C@H]1O; tested on = P2X purinoceptor 1 (P2RX1, Homo sapiens, UniProt P51575, R139P); test = saturation binding; test system = HEK293; setting = 25 nM; quantity = specific binding; value = 492 CCPM and 454 CCPM
SMILES = Cc1cn([C@H]2C[C@H](O)[C@@H](COP(=O)(O)OP(=O)(O)OP(=O)(O)O)O2)c(=O)[nH]c1=O; test = binding, equilibrium dialysis LC-MS; setting = 5 µM, thermostabilized A2AR-BRIL construct; scale = reference: no-protein control, direction not given; quantity = z-scored log2 fold change; value = -7.24
SMILES = CCCCC/C=C\C\C=C/C=C/C=C/[C@@H](SC[C@H](N)C(=O)NCC(=O)O)[C@@H](O)CCCC(=O)O; tested on = CYSLTR2 (Homo sapiens, UniProt Q9NS75); test = GloSensor; test system = HEK293T; setting = 10 nM, after washout; quantity = cAMP increase persistence; value = ≥ 360 min
SMILES = Cc1cc(=O)oc2cc(OCCCCSC#N)ccc12; tested on = CA12 (Homo sapiens, UniProt O43570); test = stopped-flow CO2 hydration; scale = reference: Ki CA I over Ki CA XII; quantity = selectivity ratio; value = > 1840
SMILES = Cc1cc(NC(=O)CCC(=O)O)nn1C; tested on = Ubiquitin carboxyl-terminal hydrolase 39 ZnF-UBD domain; quantity = Kd; value = > 1 mM
SMILES = Nc1nc2c(ncn2[C@@H]2O[C@H](COP(=O)(O)O)[C@@H](O)[C@H]2O)c(=O)[nH]1; tested on = GUK1 (Homo sapiens, UniProt Q16774, Y81A); test = enzyme activity, NADH-coupled; setting = 250 µM; quantity = reaction rate; value = 2.12 s⁻¹ and 2.09 s⁻¹ and 2.77 s⁻¹
SMILES = O=S(=O)(O)C1CCNCC1; tested on = SLC6A6 (Homo sapiens, UniProt P31641, G62A); test = binding, microscale thermophoresis; setting = 977 nM, room temperature, added: 50 nM labelled protein; scale = higher = more binding; quantity = normalised MST signal; value = -0.0253
SMILES = O=c1cc(-c2ccccc2)nc2cc(-c3ccco3)[nH]n12; tested on = BLVRB (Homo sapiens, UniProt P30043); quantity = kon; value = 19300 M⁻¹ s⁻¹
SMILES = CCOC(=O)[C@](CC)(CCCS(=O)(=O)CCOCCOCCNC(=O)OC(C)(C)C)NC(=O)c1ccc(C2CC2)c(Cc2ccc(F)cc2)n1; tested on = CNR2 (Homo sapiens, UniProt P34972); test = radioligand binding; scale = reference: CB1 over CB2 (human); quantity = Ki ratio; value = 4
SMILES = CC(C)(NCCc1ccc(C(F)(F)F)c(Cl)c1)c1cccc(NC2=CC(=O)N(C3CCC(=O)NC3=O)C2=O)c1 (stereo not shown); tested on = ZBTB11/CRBN (Homo sapiens, UniProt O95625+Q96SW2); test = protein degradation, degrader, HiBiT luminescence; test system = MOLT-4; quantity = Dmax; value = 41%
SMILES = O=C(CCCCCCC(=O)Nc1ccccc1)NO; tested on = HDAC8 (Homo sapiens, UniProt Q9BY41); test = ITC; test system = Hepes buffer; setting = concentration not given, pH 7.5; quantity = binding stoichiometry; value = 0.9
SMILES = Nc1ncnc2c1ncn2[C@@H]1O[C@H](COP(=O)(O)OP(=O)(O)O)[C@@H](O)[C@H]1O; tested on = GUK1 (Homo sapiens, UniProt Q16774); test = binding, isothermal titration calorimetry; setting = molar ratio 1.11, fitted curve; quantity = ΔH; value = -1.19 kcal/mol
SMILES = COc1cc(-c2cncc3c2CN(C)Cc2cc(N4CCNCC4)ccc2-3)cc(OC)c1OC; tested on = STK38; test = kinase activity; setting = 1 µM, human enzyme, added: ATP 10 µM; scale = reference: DMSO control; quantity = remaining activity; value = 118%
SMILES = C#Cc1cc(-c2cc(Nc3nc(N[C@@H](C)c4ccc(F)cn4)ncc3Cl)n[nH]2)ccc1C=O; tested on = PAK3 (Homo sapiens, UniProt O75914); test = enzyme activity, inhibitor; setting = 0.2 µM; quantity = inhibition; value = 2.6%

A few entries again:
SMILES = Cc1cc(NC(=O)CCC(=O)O)nn1C; tested on = Ubiquitin carboxyl-terminal hydrolase 39 ZnF-UBD domain; quantity = Kd; value = > 1 mM
SMILES = C#Cc1cc(-c2cc(Nc3nc(N[C@@H](C)c4ccc(F)cn4)ncc3Cl)n[nH]2)ccc1C=O; tested on = PAK3 (Homo sapiens, UniProt O75914); test = enzyme activity, inhibitor; setting = 0.2 µM; quantity = inhibition; value = 2.6%
SMILES = O=c1cc(-c2ccccc2)nc2cc(-c3ccco3)[nH]n12; tested on = BLVRB (Homo sapiens, UniProt P30043); quantity = kon; value = 19300 M⁻¹ s⁻¹
